Experimental data from different studies.
Parts stem from different laboratories: compare values within a part only. Positions count from the first letter of the parent shown.

Set 1
Target: Ras GTPase-activating protein-binding protein 1, full length (G3BP1, Homo sapiens, UniProt Q13283)
Sequence of UniProt Q13283 (whole entry, looked up): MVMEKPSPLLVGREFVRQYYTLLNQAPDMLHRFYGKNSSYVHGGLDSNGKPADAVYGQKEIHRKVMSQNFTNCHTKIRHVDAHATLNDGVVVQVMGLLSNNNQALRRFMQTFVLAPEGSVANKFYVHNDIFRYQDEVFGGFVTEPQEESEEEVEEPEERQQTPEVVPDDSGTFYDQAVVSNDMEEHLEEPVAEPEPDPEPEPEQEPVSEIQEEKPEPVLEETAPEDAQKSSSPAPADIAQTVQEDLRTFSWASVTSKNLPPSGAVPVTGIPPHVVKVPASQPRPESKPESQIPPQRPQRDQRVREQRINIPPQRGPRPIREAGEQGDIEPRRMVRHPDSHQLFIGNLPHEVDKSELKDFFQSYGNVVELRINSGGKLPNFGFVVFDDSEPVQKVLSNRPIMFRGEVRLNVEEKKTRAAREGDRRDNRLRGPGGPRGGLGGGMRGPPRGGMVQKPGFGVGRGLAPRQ
Method: RNA Bind-n-Seq
Form: RNA
Medium: in vitro
Concentration: 200 nM
Notes: whole 134-nt RNA, ends assumed
Together with: 150 mM KCl
Reference: input library
Direction: higher = stronger binding
Quantity: log2 enrichment
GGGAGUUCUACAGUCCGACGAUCCAGUUUAAGAGGGGUUUCAUGCAAGGGCAUGUAAAUAGACAAGAAAAAGAAGAAAAAGAAGCAAUAUAUAAAGAACGUUGGCCAGAUUAUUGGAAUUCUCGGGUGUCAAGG: -0.0853
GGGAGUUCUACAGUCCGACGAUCUUCCUCAAGUCCUGUGCUACACAUCGUAUGUACCGAAUCGGUGGUGGGUGGAAAGUAUUAUGUUACGCCGUUCGGAUCUGCACUUCCAGCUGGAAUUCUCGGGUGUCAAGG: -0.163
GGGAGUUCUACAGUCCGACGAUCCACAGACAACACGCACCCACACAGACACAGAGGGAAGGGGUUGGGAUGGGGACAGGGUGCACAGCAGGGCGCGGUAGGACCCCAGCCCCUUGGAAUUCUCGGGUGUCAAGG: 1.78
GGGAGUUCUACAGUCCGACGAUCAGUCCUGUGCUACACAUCGUAUGUACCGAAUCGGGUUUGGGAAAAAAAGGGAAAGGGAAAGUAUUAUGUUACGCCGUUCGGAUCUGCACUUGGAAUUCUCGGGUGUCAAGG: -0.0866
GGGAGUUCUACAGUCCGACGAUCAAGUCCUGUGCUACACAUCGUAUGUACCGAAUCGGGAAAGGGAAAGGGUUUUUGGGAAAGUAUUAUGUUACGCCGUUCGGAUCUGCACUUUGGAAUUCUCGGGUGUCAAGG: -0.0253
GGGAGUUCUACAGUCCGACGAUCCACAGACAACACGCACCCACACAGACACAGAGUGAAGGGGUUGGGAUGGGGACAGGGUGCACAGCAGGGCGGGGUAGGACCCCAGCCCCUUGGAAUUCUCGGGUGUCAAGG: 1.88
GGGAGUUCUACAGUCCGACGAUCUGUGCUACACAUCGUAUGUACCGAAUCGGGGUUUUUGGGGAAAAAAAGGGGAAAAAAAGGGGAAAGUAUUAUGUUACGCCGUUCGGAUCUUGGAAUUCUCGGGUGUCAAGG: -0.292
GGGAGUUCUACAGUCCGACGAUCUCCUGUGCUACACAUCGUAUGUACCGAAUCGGGAAAAAAAGGGAAAAAGGGUUUUUGGGAAAGUAUUAUGUUACGCCGUUCGGAUCUGCAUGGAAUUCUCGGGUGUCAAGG: -0.47
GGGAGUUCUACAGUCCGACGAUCUAACUUUAGAGGAGGAUCUGAUGGAUAUGGCAGUCGACGUGGAUUUGGGGAUGGCUAUAAUGGGUAUGGAGGAGGACCUGGAGGUGGCAAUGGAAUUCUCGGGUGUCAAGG: 0.179

Set 2
Target: RNA binding protein fox-1 homolog 2, RRM domain, GST-SBP tag (RBFOX2, Homo sapiens, UniProt O43251-10, residues 100-194)
Method: RNA Bind-n-Seq
Form: RNA
Medium: in vitro
Concentration: 365 nM
Notes: natural RNA segment, single round, ends assumed
Reference: no-protein control
Direction: higher = stronger binding
Quantity: RBNS enrichment (R)
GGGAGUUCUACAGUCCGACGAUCCCUUCCUGUACAUUUUCCUCCACUUUUUUUCAUUACUCAACUUGUUCCCCAAGAAGGUAGUGUACUAGGAUCCUAUUAGUCUGCUUUUCAUAUACUGUACAUCAAGUAUAUGGAAUUCUCGGGUGCCAA: 0.649
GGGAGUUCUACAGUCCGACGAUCGUCUAUACAUGGGUUUCAUUGAUGGUAUCUGUAUCAUCUUGACAAAUCGUGAACUGCUGCUGUAUGGCUAGACUUUGCCUAUUUACUCUGUUAUGCAAACAGUAAUUUUUUGGAAUUCUCGGGUGCCAA: 0.424
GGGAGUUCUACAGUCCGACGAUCAUUCUGCCUCAAUCUUUUGCAAGCCCACCUGCCUCUCUCCUGCUGCUCCUCCAGCUGUAUCUGCACCUGCCUCUCUGUCCUGGCCAGGGGUGGACAACUGGGGUCCCCCAUGGAAUUCUCGGGUGCCAA: 1.19
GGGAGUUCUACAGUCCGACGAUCUUAUAAUAAAAGCCUUACGGACAAACCUACUGUGGGCUCCAGCCUUUGUCCUGAGAUAGCCAAGCGGAGAAUGGGCAGUUUCUUUACCAGUUUGUGAGAGAGAGGAGGGAUGGAAUUCUCGGGUGCCAA: 1.37
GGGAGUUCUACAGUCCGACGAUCUUACUUCCCAGACCAGGUGUCCGGCUGGGAACAAACCACUAAUUUGUCACUGGACUGUCUCUGGGCCUGCUUAGACGGGGAUUGACACACAGAAUGGAACUGUGAGUGGAUGGAAUUCUCGGGUGCCAA: 1.3
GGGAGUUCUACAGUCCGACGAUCUUGUGUGCAUACAUAUUCUACUGAUUAACUACUUUUGCAGUUUUAAUCCUGUAUUAUUUCUUCUACUUUGUUUUGUGUAAAAGGGGAAAAAAUAAAAAAAGCUGGAAUCUUGGAAUUCUCGGGUGCCAA: 0.735
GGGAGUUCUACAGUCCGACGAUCGUGAGUGUAUCAGAAUGCCAGGGAGGGCACCAGCCCUGAUCCACAGACCUCGGAAAGAUGCCCCUGUUCCUUUGUUGCGGGUGGUUUUGGUAAGGCAGAGCCCUCUGCUGUGGAAUUCUCGGGUGCCAA: 1
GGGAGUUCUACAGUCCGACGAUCACCAAGAAGCAAAGUUCAACUUAUUUCAUAAUUGCCUACAUUUAUCAUGGUCCUGAAUGUAGCGUGUAAGCUUGUGUUUCUUGGGCAGUCUUUCUUGAAAUUGAAGAGGUUGGAAUUCUCGGGUGCCAA: 0.594

Set 3
Target: ABI1, truncated, D143A, DHFR fusion (Arabidopsis thaliana, UniProt P49597)
Method: DHFR PCA, dose-response
Medium: yeast
Notes: Hill fit, mean, not affinity
Together with: (+)-ABA, dose series
Direction: lower = more sensitive
Quantity: ABA EC50
Starting sequence: PYL1, truncated, DHFR fusion (Arabidopsis thaliana, UniProt Q8VZS8); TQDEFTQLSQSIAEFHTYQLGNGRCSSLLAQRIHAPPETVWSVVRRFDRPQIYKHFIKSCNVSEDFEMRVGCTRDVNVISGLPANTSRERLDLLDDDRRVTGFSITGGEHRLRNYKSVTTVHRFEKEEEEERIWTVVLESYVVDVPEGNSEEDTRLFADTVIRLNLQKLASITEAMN
S27C: 63 µM
G148L: 40.6 µM
E152R: 7.02 µM
E139H: 14.7 µM
T6D: 1.47 µM
R32Q: 3.02 µM
E130T: 2.37 µM
R24L: 7.98 µM
L93T: 4.4 µM
R88N: 3.87 µM
K168Y: 64.9 µM
V76L: 3.57 µM
T1S: 1.83 µM
F66S: 4.81 µM
R111W: 300 µM
D159N: 1.21 µM
D159A: 61.4 µM

Set 4
Target: CCNB1, cyclin fold, Cln2 fusion (human)
Method: yeast growth competition, sequencing
Medium: yeast
Notes: weak parent motif
Reference: not given
Direction: higher = stronger binding
Quantity: normalised enrichment score
Starting sequence: RBL1 docking peptide (human); GSAKRRLFGEDPP
E10G: 0.0652
E10T: 0.323
E10Q: 0.123
P12E: 1.78
R5D: -0.0463
E10A: 0.618
G1Q: 0.326
P13M: 0.21
S2D: 0.516
K4G: 0.151
G1C: 0.0778
R6V: 0.643
A3W: 1.12
P12Y: 1.43
R5F: 0.378
R6W: 0.0744
G9C: 0.959
D11R: 0.654
P13W: 1.15
D11F: -0.0121
